Assay results from different studies.
± marks the error that the study gave. Values after ≈ are worked out from the molar mass of the structure shown.
UniProt P43251, sequence (whole entry, looked up): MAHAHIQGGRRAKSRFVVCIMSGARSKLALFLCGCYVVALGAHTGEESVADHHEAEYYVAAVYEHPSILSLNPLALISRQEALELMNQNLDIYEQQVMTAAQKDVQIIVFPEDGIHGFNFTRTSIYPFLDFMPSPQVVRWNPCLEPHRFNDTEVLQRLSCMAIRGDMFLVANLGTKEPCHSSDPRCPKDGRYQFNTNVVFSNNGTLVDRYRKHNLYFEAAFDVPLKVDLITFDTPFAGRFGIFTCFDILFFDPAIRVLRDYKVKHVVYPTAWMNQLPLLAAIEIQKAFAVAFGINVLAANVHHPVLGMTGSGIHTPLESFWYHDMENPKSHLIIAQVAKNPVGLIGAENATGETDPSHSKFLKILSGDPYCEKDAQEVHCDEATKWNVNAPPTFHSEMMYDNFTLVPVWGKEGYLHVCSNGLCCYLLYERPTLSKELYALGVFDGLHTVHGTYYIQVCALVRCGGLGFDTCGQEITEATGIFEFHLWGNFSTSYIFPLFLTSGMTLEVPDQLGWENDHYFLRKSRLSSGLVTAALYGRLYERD
UniProt O70528, sequence (whole entry, looked up): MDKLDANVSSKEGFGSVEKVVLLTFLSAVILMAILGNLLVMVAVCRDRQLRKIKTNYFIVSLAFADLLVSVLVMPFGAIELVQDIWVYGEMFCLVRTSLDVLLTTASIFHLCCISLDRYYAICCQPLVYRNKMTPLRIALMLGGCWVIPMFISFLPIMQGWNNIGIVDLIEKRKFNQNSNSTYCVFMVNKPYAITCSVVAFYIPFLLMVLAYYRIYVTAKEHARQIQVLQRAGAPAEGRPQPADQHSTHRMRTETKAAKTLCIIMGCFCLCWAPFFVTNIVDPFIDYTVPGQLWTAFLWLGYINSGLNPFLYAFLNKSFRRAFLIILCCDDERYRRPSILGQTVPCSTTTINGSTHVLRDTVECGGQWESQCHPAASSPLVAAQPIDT
UniProt Q9NZJ5, sequence (whole entry, looked up): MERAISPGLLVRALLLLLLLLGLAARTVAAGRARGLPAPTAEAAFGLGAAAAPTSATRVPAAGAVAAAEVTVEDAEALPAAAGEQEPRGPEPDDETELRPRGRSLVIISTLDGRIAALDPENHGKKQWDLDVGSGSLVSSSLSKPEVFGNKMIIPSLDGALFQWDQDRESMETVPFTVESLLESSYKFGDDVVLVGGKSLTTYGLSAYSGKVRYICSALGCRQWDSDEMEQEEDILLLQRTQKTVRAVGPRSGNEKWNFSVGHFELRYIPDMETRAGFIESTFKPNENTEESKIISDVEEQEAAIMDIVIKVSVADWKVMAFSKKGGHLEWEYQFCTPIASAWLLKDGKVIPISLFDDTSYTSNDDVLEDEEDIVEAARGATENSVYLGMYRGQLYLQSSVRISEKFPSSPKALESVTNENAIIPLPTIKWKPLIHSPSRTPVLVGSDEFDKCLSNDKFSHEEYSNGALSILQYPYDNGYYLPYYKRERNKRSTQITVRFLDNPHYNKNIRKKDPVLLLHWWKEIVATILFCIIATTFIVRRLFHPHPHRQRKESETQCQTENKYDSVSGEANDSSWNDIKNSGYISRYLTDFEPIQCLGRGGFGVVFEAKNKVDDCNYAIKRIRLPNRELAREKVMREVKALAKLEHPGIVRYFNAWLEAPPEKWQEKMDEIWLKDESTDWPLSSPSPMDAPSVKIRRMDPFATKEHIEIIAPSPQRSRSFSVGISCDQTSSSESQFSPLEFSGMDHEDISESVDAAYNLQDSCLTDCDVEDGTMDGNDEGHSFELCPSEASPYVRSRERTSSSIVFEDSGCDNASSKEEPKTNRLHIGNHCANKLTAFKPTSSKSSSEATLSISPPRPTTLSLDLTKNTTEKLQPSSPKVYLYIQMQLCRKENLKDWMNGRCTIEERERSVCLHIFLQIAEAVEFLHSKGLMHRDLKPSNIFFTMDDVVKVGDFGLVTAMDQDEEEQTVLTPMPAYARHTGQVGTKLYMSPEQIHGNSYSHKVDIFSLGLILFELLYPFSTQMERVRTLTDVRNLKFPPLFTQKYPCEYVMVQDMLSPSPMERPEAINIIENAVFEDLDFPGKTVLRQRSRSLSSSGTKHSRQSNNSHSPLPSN
UniProt Q9H7Z7, sequence (whole entry, looked up): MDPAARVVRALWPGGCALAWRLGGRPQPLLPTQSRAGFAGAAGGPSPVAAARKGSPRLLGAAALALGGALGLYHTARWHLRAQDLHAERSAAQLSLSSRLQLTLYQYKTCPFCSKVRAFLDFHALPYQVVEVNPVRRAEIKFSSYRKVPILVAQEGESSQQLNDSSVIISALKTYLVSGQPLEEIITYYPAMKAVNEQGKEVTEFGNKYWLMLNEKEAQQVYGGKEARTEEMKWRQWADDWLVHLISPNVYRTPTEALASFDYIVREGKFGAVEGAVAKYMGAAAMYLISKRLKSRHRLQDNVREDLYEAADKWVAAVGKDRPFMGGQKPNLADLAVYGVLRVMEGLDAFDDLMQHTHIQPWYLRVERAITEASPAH
UniProt Q9JMD7, sequence (whole entry, looked up): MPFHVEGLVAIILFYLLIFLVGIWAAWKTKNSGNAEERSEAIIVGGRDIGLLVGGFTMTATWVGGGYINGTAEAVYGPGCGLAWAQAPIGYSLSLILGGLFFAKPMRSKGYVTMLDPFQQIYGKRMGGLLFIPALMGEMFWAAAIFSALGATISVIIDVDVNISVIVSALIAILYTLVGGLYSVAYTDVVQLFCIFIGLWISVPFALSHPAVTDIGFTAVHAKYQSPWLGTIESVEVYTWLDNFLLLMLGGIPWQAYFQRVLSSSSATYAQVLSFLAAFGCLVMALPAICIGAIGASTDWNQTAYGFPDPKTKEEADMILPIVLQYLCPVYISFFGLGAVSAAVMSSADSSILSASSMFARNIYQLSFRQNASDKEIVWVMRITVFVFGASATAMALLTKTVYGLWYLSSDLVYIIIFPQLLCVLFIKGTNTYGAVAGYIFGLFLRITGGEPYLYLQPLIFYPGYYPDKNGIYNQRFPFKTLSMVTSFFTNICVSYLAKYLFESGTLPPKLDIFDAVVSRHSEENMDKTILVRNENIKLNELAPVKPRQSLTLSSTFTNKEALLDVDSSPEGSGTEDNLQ

`CCN(CC)CC#Cc1ccc2[nH]c(C)c(Cl)c(=O)c2c1` gave an EC50 of 404 ± 88 nM (Plasmodium falciparum; parasite growth, SYBR Green; 3D7 wild type; 72 h).
`O=C(c1ccc(Cl)cc1)N1CCN2C(=O)N(OC(=O)N3CCOc4ccccc43)C(=O)C2C1` (centres unmarked): “probe labelling ratio” 1.78 (Biotinidase (Homo sapiens, UniProt P43251); MS-based ABPP; SW-620 conditioned medium; 10 µM, 1 h, 37 °C, mean protein ratio; baseline: compound over DMSO).
For `CC(C)[C@H]1NC(=O)[C@H](Cc2ccccc2)NC(=O)[C@@H](Cc2c[nH]c3ccccc23)NC(=O)[C@H](CCCNC(=N)N)NC(=O)[C@@H](CCCN)NC(=O)[C@H](CC(N)=O)NC1=O`, the IC90 was over 16 µg/mL (Acanthamoeba castellanii; trophozoites).
The IC50 of `OC(c1cc(C(F)(F)F)nc2c(C(F)(F)F)cccc12)C1CCCCN1` (centres unmarked) is reported as 7 nM (Plasmodium falciparum; GB4).
For `Cn1nc(C(=O)N2CCC(c3[nH]ncc3Cc3ccccc3)CC2)c2ccccc2c1=O`, the EC50 was 157 ± 37 nM (Plasmodium falciparum; parasite growth, SYBR Green; 3D7 wild type; 72 h).
`O=C(Nc1cccnn1)N1CCC(=Cc2cccc(Oc3ccc(C(F)(F)F)cn3)c2)CC1`: “inhibition of binding” 61% (HTR4 (Cavia porcellus, UniProt O70528); radioligand binding; 50 µM, with: [3H]GR-113808).
For `COCC(C)n1c(SCC(=O)Nc2cc(C(F)(F)F)ccc2Cl)nc2ccccc2c1=O` (centres unmarked), the EC50 was over 5000 nM (Plasmodium falciparum; parasite growth).
The inhibition of `COc1ccc(N2C(=O)N(c3c(C)cccc3Cl)Cc3cnc(Nc4ccc(C5CCN(C)CC5)cc4OC)nc32)nc1` is reported as 15% (EIF2AK3 (Homo sapiens, UniProt Q9NZJ5); kinase activity, inhibitor; 0.5 µM, kinase PERK).
With `COc1cc(CCC[P+](c2ccccc2)(c2ccccc2)c2ccccc2)c(OC)c2c1OCO2.[I-]` the mean Log10LC50 was -4.19 log M (NCI60 panel; SRB).
With `CCC1(C2=NCCN2)Cc2ccccc2O1` (centres unmarked) the IC50 was 3160 nM (Plasmodium falciparum; W2).
`CC(C)[C@@H]1NC(=O)[C@@H](CC(N)=O)NC(=O)[C@H](Cc2ccccc2)NC(=O)[C@@H](CCCN)NC(=O)[C@H](CCCN)NC(=O)[C@H]([C@@H](C)O)NC(=O)[C@@H](C(C)C)NC(=O)[C@H](C(C)C)NC(=O)[C@@H]([C@H](C)O)NC(=O)[C@@H](C(C)C)NC1=O` gave an IC50 of over 16 µg/mL (Naegleria fowleri; trophozoites).
With `C[C@@H](O)[C@@H](CO)NC(=O)[C@@H](CCCNC(=N)N)NC(=O)[C@@H]1CCCN1C(=O)[C@@H]1CSSC[C@H](NC(=O)[C@H](Cc2ccccc2)NC(=O)CN2CCN(CC(=O)O)CCN(CC(=O)O)CCN(CC(=O)O)CC2)C(=O)N[C@@H](Cc2ccc(O)cc2)C(=O)N[C@@H](Cc2ccccc2)C(=O)N[C@@H](CCC(N)=O)C(=O)N[C@@H](CC(N)=O)C(=O)N1` [gallium-68 labelled] the tissue uptake was 0.23 %ID/g (healthy Wistar rat, large intestine; intravenous, 8 MBq, 30 min).
For `CN(C)c1ccc(O)c2c1C[C@H]1C[C@H]3[C@H](N(C)C)C(O)=C(C(N)=O)C(=O)[C@@]3(O)C(O)=C1C2=O`, the IC50 was 3980 nM (Plasmodium falciparum; Dd2).
The IC50 of `COc1cc(Nc2ncc(F)c(Nc3ccc4c(n3)NC(=O)C(C)(C)O4)n2)cc(OC)c1OC` is reported as over 10000 nM (NMDA receptor polyamine site).
`CC(C)C[C@@H]1NC(=O)CNC(=O)[C@@H](Cc2ccccc2)NC(=O)[C@H](CCCCN)NC(=O)[C@@H](CCCN)NC(=O)[C@@H](C(C)C)NC1=O` has an IC50 of over 16 µg/mL (Naegleria fowleri; trophozoites).
`CCN(CC)[C@@H]1CCc2c(F)ccc(O)c2C1` gave an IC50 of 631 nM (Plasmodium falciparum; W2).
With `CN(C(=O)n1cnc(-c2ccc[n+]([O-])c2)c1)C1CCCCC1` the inhibition was -4% (High affinity choline transporter 1 (Rattus norvegicus, UniProt Q9JMD7); radioligand binding; 10 µM, with: [3H]hemicholinium-3).
`C[C@@H](O)[C@@H]1NC(=O)[C@@H](CCCCN)NC(=O)[C@H](CCCN)NC(=O)[C@@H](CCCN)NC(=O)[C@H](CO)NC(=O)[C@H](Cc2c[nH]c3ccccc23)NC(=O)[C@@H](Cc2c[nH]c3ccccc23)NC1=O` has an IC90 of over 16 µg/mL (Acanthamoeba castellanii; trophozoites).
Under “corrected larval mortality”, `CNC(=O)c1cc(Cl)cc(C)c1NC(=O)c1cc(Br)nn1-c1ncccc1Cl` is recorded as 79.2% (Spodoptera litura; Brassica oleracea field; 25 ppm, 72 h, 5% water-dispersible granule).
The EC50 of `Cc1noc(-c2cccs2)c1C(=O)NC(C)c1cccc2ccccc12` (centres unmarked) is reported as 50.4 ± 16 nM (Plasmodium falciparum; parasite growth, SYBR Green; 3D7 wild type; 72 h).
For `C[C@H]1CN(c2n[nH]c3nc(N[C@H]4CC[C@H](NS(=O)(=O)CCC(F)(F)F)CC4)ncc23)CCO1`, the remaining binding was 1.1 (Prostaglandin E synthase 2 (Homo sapiens, UniProt Q9H7Z7); Kinobeads competition, refers to: PTGES2; 0.032 µM, unit not given; baseline: vehicle).
The IC50 of `CCc1cccc(N(C)C(=N)Nc2cccc3ccccc23)c1` is reported as 3160 nM (Plasmodium falciparum; 7G8).
With `COc1c(CCC[P+](c2ccccc2)(c2ccccc2)c2ccccc2)cc2c(c1OC)OCO2.[I-]` the mean Log10TGI was -4.83 log M (NCI60 panel; SRB).
The EC50 of `Cc1[nH]c(C)c(-c2ccc(OCCn3cnc(Cl)c3Cl)cc2)c(=O)c1Br` is reported as 3610 ± 230 nM (Plasmodium falciparum; parasite growth, SYBR Green; 3D7 DHODH E182D; 72 h).
`CC(C)(CO)Cc1cc(C(C)(C)C)c(O)c(C(C)(C)C)c1` gave an IC50 of 7940 nM (Plasmodium falciparum; 7G8).
With `CC[C@H](C)[C@H](NC(=O)[C@H](Cc1ccccc1)NC(=O)[C@H](CCC(=O)O)NC(=O)[C@H](CCCNC(=N)N)NC(=O)[C@H](C)NC(=O)[C@H](C)NC(=O)[C@H](CCC(N)=O)NC(=O)[C@H](CCC(=O)O)NC(=O)[C@H](CCC(=O)O)NC(=O)[C@H](CC(C)C)NC(=O)[C@H](Cc1ccc(O)cc1)NC(=O)[C@H](CO)NC(=O)[C@H](CO)NC(=O)[C@@H](NC(=O)[C@H](CC(=O)O)NC(=O)[C@H](CO)NC(=O)[C@@H](NC(=O)[C@H](Cc1ccccc1)NC(=O)[C@@H](NC(=O)CNC(=O)[C@H](CCC(=O)O)NC(=O)[C@H](C)NC(=O)CCc1c[nH]cn1)[C@@H](C)O)[C@@H](C)O)C(C)C)C(=O)N[C@@H](C)C(=O)N[C@@H](Cc1c[nH]c2ccccc12)C(=O)N[C@@H](CC(C)C)C(=O)N[C@H](C(=O)N[C@@H](CCCNC(=N)N)C(=O)NCC(=O)N[C@@H](CCCNC(=N)N)C(=O)N[C@@H](CCCCNC(=O)COCCOCCNC(=O)COCCOCCNC(=O)CC[C@H](NC(=O)CCCCCCCCCCCCCCCCC(=O)O)C(=O)O)C(=O)NCC(=O)NCC(=O)N[C@@H](CO)C(=O)N[C@@H](CCCCNc1c(NCCCCCN(O)C(=O)CCC(=O)NCCCCCN(O)C(=O)CCC(=O)NCCCCCN(O)C(C)=O)c(=O)c1=O)C(=O)O)C(C)C` [zirconium-89 labelled] the tissue uptake was 0.21 %ID/g (ex vivo gamma counting; rat, knee; subcutaneous, 3 nmol/kg, 24 h, with: [89Zr]-labelled peptide).
`C[C@@H](O)[C@@H]1NC(=O)[C@H](Cc2ccccc2)NC(=O)[C@@H](Cc2ccccc2)NC(=O)[C@H](Cc2ccccc2)NC(=O)[C@@H](CCCN)NC(=O)[C@H](CCCCN)NC(=O)[C@@H](CCCCN)NC1=O` has an IC50 of 12.9 µg/mL (Acanthamoeba castellanii; trophozoites).
`COC(=O)c1cccc(C#CCCOCCCCCCNC[C@H](O)c2cc(Cl)c(N)c(Cl)c2)c1` has an EC50 of 1630 ± 74 nM (Plasmodium falciparum; parasite growth, SYBR Green; 3D7 wild type; 72 h).
`COC(=O)[C@H]1[C@H]2C[C@@H]3c4[nH]c5cc(OC)ccc5c4CCN3C[C@H]2C[C@@H](OC(=O)c2cc(OC)c(OC)c(OC)c2)[C@@H]1OC` gave an IC50 of 2510 nM (Plasmodium falciparum; D10).
The IC90 of `CC(C)[C@@H]1NC(=O)[C@@H](Cc2ccccc2)NC(=O)[C@H](Cc2ccccc2)NC(=O)[C@@H]([C@H](C)O)NC(=O)[C@H]([C@@H](C)O)NC(=O)[C@@H](CCCNC(=N)N)NC1=O` is reported as over 16 µg/mL (Acanthamoeba castellanii; trophozoites).
For `COc1ccc(-n2ccnc2SCC(=O)Nc2cc(Cl)ccc2OC)c(OC)c1`, the EC50 was 5290 ± 700 nM (Plasmodium falciparum; parasite growth, SYBR Green; 3D7 DHODH E182D; 72 h).
`CC(C)[C@@H]1NC(=O)[C@@H](Cc2ccccc2)NC(=O)[C@H](CCCNC(=N)N)NC(=O)[C@@H]([C@H](C)O)NC(=O)[C@H](CC(N)=O)NC(=O)[C@@H](C(C)C)NC1=O` gave an IC50 of over 16 µg/mL (Acanthamoeba castellanii; trophozoites).
`CC(c1ccc(OC(F)(F)F)cc1)c1nn2c(-c3cccs3)nnc2s1` (centres unmarked) gave an EC50 of 68.8 ± 24 nM (Plasmodium falciparum; parasite growth, SYBR Green; 3D7 wild type; 72 h).
With `COc1ccc(CCN(C)CCCC(C#N)(c2ccc(OC)c(OC)c2)C(C)C)cc1OC` (centres unmarked) the IC50 was 3980 nM (Plasmodium falciparum; Dd2).
`CC[C@H](C)[C@@H]1NC(=O)[C@@H]2CCCN2C(=O)[C@H](CC(C)C)NC(=O)[C@H](CC(C)C)NC(=O)CNC(=O)[C@@H](NC(=O)[C@@H](NC(=O)[C@H](CC(=O)O)NC(=O)CNC(=O)[C@@H](NC(=O)[C@H](C)NC(=O)CNC(=O)[C@H](CCCCN)NC(=O)[C@H](CC(C)C)NC(=O)[C@H](CC(C)C)NC(=O)[C@H](CCCCN)NC(=O)CNC(=O)[C@@H](NC(=O)[C@@H](N)CC(C)C)C(C)C)C(C)C)C(C)C)CSSC[C@@H](C(=O)O)NC1=O` — result for “log2 fold change”: -3.15 (RNA-seq, refers to: Lilra6; mouse, traumatic brain injury model, frontal cortex and hippocampus; dose not given; baseline: TBI alone).
The MIC50 of `CC[C@H](C)[C@H](NC(=O)[C@H](C)NC(=O)[C@H](CCCCN)NC(=O)[C@H](CC(C)C)NC(=O)[C@H](C)NC(=O)[C@@H](NC(=O)[C@H](Cc1c[nH]cn1)NC(=O)[C@H](CC(C)C)NC(=O)[C@@H](NC(=O)[C@@H](NC(=O)[C@H](CCCCN)NC(=O)[C@H](C)NC(=O)[C@H](C)NC(=O)[C@H](CO)NC(=O)[C@H](CCCCN)NC(=O)[C@H](Cc1ccccc1)NC(=O)[C@@H](NC(=O)[C@H](CCCCN)NC(=O)[C@H](CC(C)C)NC(=O)[C@H](Cc1ccccc1)NC(=O)[C@H](CO)NC(=O)[C@H](CCCCN)NC(=O)[C@H](Cc1c[nH]c2ccccc12)NC(=O)[C@H](CCCCN)NC(C)=O)[C@@H](C)O)[C@@H](C)O)C(C)C)[C@@H](C)O)C(=O)N[C@@H](CO)C(=O)N[C@@H](CO)C(N)=O` is reported as 4 µg/mL (≈ 1.36 µM) (Pseudomonas aeruginosa; ATCC 27853).
For `CC(C)[C@@H]1NC(=O)[C@@H](Cc2ccccc2)NC(=O)[C@H](Cc2ccccc2)NC(=O)[C@@H]([C@H](C)O)NC(=O)[C@@H](CCCNC(=N)N)NC1=O`, the IC90 was over 16 µg/mL (Acanthamoeba castellanii; trophozoites).
Under “incidence of TRAE”, `CO[C@H]1C[C@@H]2CC[C@@H](C)[C@@](O)(O2)C(=O)C(=O)N2CCCC[C@H]2C(=O)O[C@H]([C@H](C)C[C@@H]2CC[C@@H](OC(=O)NCCOCCOCCOCCOCCOCCOCCOCCOCCC(=O)N3CCc4cc(Cn5nc(-c6ccc7oc(N)nc7c6)c6c(N)ncnc65)ccc4C3)[C@H](OC)C2)C[C@@H](O)[C@H](C)/C=C(\C)[C@@H](O)[C@@H](OC)C(=O)[C@H](C)C[C@H](C)/C=C/C=C/C=C/1C` is recorded as 36.8% (advanced solid tumour patients; intravenous, dose not given, grade ≥3, all doses).

For quick reference, copied from above:
With `CCC1(C2=NCCN2)Cc2ccccc2O1` (centres unmarked) the IC50 was 3160 nM (Plasmodium falciparum; W2).
`CC(C)[C@@H]1NC(=O)[C@@H](CC(N)=O)NC(=O)[C@H](Cc2ccccc2)NC(=O)[C@@H](CCCN)NC(=O)[C@H](CCCN)NC(=O)[C@H]([C@@H](C)O)NC(=O)[C@@H](C(C)C)NC(=O)[C@H](C(C)C)NC(=O)[C@@H]([C@H](C)O)NC(=O)[C@@H](C(C)C)NC1=O` gave an IC50 of over 16 µg/mL (Naegleria fowleri; trophozoites).
With `C[C@@H](O)[C@@H](CO)NC(=O)[C@@H](CCCNC(=N)N)NC(=O)[C@@H]1CCCN1C(=O)[C@@H]1CSSC[C@H](NC(=O)[C@H](Cc2ccccc2)NC(=O)CN2CCN(CC(=O)O)CCN(CC(=O)O)CCN(CC(=O)O)CC2)C(=O)N[C@@H](Cc2ccc(O)cc2)C(=O)N[C@@H](Cc2ccccc2)C(=O)N[C@@H](CCC(N)=O)C(=O)N[C@@H](CC(N)=O)C(=O)N1` [gallium-68 labelled] the tissue uptake was 0.23 %ID/g (healthy Wistar rat, large intestine; intravenous, 8 MBq, 30 min).
For `CN(C)c1ccc(O)c2c1C[C@H]1C[C@H]3[C@H](N(C)C)C(O)=C(C(N)=O)C(=O)[C@@]3(O)C(O)=C1C2=O`, the IC50 was 3980 nM (Plasmodium falciparum; Dd2).
The IC50 of `COc1cc(Nc2ncc(F)c(Nc3ccc4c(n3)NC(=O)C(C)(C)O4)n2)cc(OC)c1OC` is reported as over 10000 nM (NMDA receptor polyamine site).
